Published values pooled from the literature.
A part holds a random share of what one study measured.

Block 1
Target: Cyclic AMP-dependent transcription factor ATF-1 (ATF1, Homo sapiens, UniProt P18846, residues 1-271, full length assumed)
Technique: protein-binding microarray
Form: double-stranded DNA, one strand shown
Matrix: in vitro
Concentration: not given
Setting: k-mer, scored over probes, only values ≥0.25
Reading: higher = stronger binding
Construct (chain): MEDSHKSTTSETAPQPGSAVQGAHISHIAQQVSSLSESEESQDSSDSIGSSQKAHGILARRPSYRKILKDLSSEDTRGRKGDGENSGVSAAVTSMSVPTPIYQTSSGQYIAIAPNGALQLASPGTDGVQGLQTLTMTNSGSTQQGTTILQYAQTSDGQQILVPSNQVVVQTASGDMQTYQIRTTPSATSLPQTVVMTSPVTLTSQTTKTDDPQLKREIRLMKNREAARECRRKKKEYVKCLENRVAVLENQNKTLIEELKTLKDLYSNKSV
With `AGACGTA` the E-score was 0.32.
For `AAACGTG`, the E-score was 0.25.
`ACGTGTA` has an E-score of 0.326.
With `CGTCGAC` the E-score was 0.27.
`CAACCAC` has an E-score of 0.275.
`ACGTATG` has an E-score of 0.406.
`AACGTAG` gave an E-score of 0.325.

Block 2
Target: Sal-like protein 4, full length isoform A (SALL4, Homo sapiens, UniProt Q9UJQ4, residues 1-1053)
UniProt Q9UJQ4, sequence (whole entry, looked up): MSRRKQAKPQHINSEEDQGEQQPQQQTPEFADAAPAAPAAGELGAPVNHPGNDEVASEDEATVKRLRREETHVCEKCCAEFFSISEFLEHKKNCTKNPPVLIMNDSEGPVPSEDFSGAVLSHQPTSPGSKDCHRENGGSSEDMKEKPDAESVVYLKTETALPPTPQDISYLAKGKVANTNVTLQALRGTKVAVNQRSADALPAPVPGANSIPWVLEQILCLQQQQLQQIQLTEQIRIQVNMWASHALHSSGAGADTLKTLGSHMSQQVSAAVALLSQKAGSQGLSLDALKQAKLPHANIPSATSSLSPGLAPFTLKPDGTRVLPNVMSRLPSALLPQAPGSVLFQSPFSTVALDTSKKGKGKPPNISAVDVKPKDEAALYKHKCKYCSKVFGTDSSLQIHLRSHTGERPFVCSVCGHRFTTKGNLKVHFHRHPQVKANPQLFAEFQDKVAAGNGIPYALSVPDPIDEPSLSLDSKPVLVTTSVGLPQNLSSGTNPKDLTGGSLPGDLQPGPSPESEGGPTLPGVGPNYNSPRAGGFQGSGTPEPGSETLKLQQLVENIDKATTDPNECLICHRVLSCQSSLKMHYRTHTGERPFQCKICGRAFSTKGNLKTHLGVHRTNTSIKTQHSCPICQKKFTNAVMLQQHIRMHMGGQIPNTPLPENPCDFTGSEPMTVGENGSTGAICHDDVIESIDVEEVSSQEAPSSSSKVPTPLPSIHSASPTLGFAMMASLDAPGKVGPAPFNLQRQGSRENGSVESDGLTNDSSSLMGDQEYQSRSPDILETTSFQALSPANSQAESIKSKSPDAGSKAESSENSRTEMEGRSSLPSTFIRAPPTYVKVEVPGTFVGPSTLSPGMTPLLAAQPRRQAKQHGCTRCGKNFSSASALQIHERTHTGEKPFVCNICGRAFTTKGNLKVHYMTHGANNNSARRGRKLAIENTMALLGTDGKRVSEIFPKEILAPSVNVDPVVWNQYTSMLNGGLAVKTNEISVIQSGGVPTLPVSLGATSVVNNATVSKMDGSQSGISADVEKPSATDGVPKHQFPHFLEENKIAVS
Technique: universal PBM
Form: double-stranded DNA, one strand shown
Matrix: in vitro
Concentration: 600 nM
Setting: 8-mer, flanks averaged, mean of replicates
Reading: higher = stronger binding
With `ACCTCGAT` the E-score was -0.0869.
`ACTTGCCA` gave an E-score of -0.104.
For `CCCTCAGG`, the E-score was -0.258.
With `AAGGGCAA` the E-score was -0.124.
The E-score of `AGGCGAAA` is reported as 0.0168.
With `AGTCATTG` the E-score was 0.0264.
`CTCTACTC` gave an E-score of -0.00861.
The E-score of `TACAGTCA` is reported as 0.16.

Block 3
Target: RNA binding protein fox-1 homolog 2, RRM domain, GST-SBP tag (RBFOX2, Homo sapiens, UniProt O43251-10, residues 100-194)
Technique: RNA Bind-n-Seq
Form: RNA
Matrix: in vitro
Concentration: 365 nM
Setting: natural RNA segment, single round, ends assumed
Baseline: no-protein control
Reading: higher = stronger binding
Under “RBNS enrichment (R)”, `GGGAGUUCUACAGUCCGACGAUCUUUUCUCACUUGCACCCCUGCACCUCGUUAUGACCCCUAUUUUUCUGGGAUUUUCUUGGUCCUCAUUUUCUGACUCUCUCCCACAACCCACUCCAAAAGGUAGUACCUCAUGGAAUUCUCGGGUGCCAA` is recorded as 1.06.
`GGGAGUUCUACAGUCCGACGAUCUACUCAUAUAAAAUGAACAGGAAAGUGUUAGUGAUUGGGUGAUUUGAGCUACAUCUUGUUGAGCAAGGGGAGUGAAACCACAGAAACUGUUAAAUUGAACGUAAAUAACUUGGAAUUCUCGGGUGCCAA`: “RBNS enrichment (R)” 0.581.
For `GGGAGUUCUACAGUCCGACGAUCCUUUGCAUCAUGUUAGCCAGCCAGUAUUUACUCAUUGUUAGGAAAAUCGAGCUGUGGCUGAAGACCCGAGGCUCAGUUAGCAACCUCUGUUGUAGCUGUCAACCCAUUGGUGGAAUUCUCGGGUGCCAA`, “RBNS enrichment (R)” read 1.05.
Under “RBNS enrichment (R)”, `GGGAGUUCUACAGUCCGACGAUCCUGUAUAUAUCAGAUGAGCAGUGAUGACUUCUAUAACUGUUGGCUUUAAUAUUUUUCAUUUAGCUAUAUAAUAAAAUUCACUAGGAAAAUCAUUUAAAGUUGAAAGAAAAUGGAAUUCUCGGGUGCCAA` is recorded as 0.698.
For `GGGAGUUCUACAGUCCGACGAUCUUCCUUUACUCAAGGGUUUGGGGAGCAGCCCACAGGAGCGCUGCCUCCAUUUGACAUGCCUUCGGGGGCUCUGCUGGCUGCACCCCAGUUUGAGAUGCUCCAGAAUCCACUGGAAUUCUCGGGUGCCAA`, “RBNS enrichment (R)” read 1.49.
Under “RBNS enrichment (R)”, `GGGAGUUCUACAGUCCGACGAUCCAGGUAGAUAAUUUUUCAAAUGUGAAUUAUCUUUUGUGUCUAUAUUGAUAGCUCUUAAAGGAGUGAAAAUCUAAAAUAGUAAAUUUCAAUGUUAAGUGUCUGCUUUAUGGUGGAAUUCUCGGGUGCCAA` is recorded as 0.591.
`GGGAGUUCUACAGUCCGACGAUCGUUAUCAAAAAUUUCAUGGAAGGACCACAUUUUAUAUUUAUUGUGCUUCGAGUGACUGACCCCAGUGGUAUCCUGUGACAUGUAACAGCCAGGAGUGUUAAGCGUUCAGUUGGAAUUCUCGGGUGCCAA`: “RBNS enrichment (R)” 0.829.
For `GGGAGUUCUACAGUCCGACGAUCAGGCCUAAUUGUUCAUCAUCAAGCCGGCGACUCAUGUGGUGCCUGCCCUAGGCGUGGCCUGCGGUCUGGCAGAUCCGUGCUACAGAAUUCGCCUGGUUCCUCUCUAUUUUUGGAAUUCUCGGGUGCCAA`, “RBNS enrichment (R)” read 0.688.
`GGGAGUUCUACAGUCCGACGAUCUUACUGUUGCUUUGGUGUGUCUUGAAGUUUGAUUGAUUAUUUUUGGUCAUUGAGUUCUUAGUGUAGUUUGCUAGAUGAUUAUUAAGAUUCUUUUGUGUCUGACACUUGUGUGGAAUUCUCGGGUGCCAA` — result for “RBNS enrichment (R)”: 2.87.

Further values, each from its own experiment
The fold induction of `PhoQ, residues 284 288 289 292 302 303 ASSHFY` is reported as 3.3 (PhoP, residues 12 14 15 18 19 VHSCL (Escherichia coli, UniProt P23836); Sort-seq, item: YFP reporter; E. coli; PhoQ-PhoP variant library, with: 10 µM Mg2+; baseline: high Mg2+ state, higher = stronger signaling).

For quick reference, copied from above (block 2):
With `ACCTCGAT` the E-score was -0.0869.
The E-score of `TACAGTCA` is reported as 0.16.
